Literature values as cited in several papers.
Each numbered part shows a few of the values that one paper quotes. Numbers after ± are the reported error. ≈ marks a conversion by molar mass, not a printed value.
UniProt P11229, sequence (whole entry, looked up): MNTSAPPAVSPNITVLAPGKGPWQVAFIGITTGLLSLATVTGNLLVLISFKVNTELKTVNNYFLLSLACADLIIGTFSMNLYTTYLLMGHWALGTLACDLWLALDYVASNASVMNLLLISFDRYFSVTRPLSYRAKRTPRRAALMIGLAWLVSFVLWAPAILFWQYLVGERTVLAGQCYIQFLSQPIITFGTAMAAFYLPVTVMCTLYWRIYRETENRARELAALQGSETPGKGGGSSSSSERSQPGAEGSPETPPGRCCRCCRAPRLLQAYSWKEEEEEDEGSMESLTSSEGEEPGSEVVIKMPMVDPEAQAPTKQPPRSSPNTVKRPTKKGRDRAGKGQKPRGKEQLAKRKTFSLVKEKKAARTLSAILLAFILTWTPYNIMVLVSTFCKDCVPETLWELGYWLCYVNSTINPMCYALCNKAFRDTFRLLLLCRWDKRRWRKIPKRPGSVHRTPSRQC

Study 1
Target: HLA class I histocompatibility antigen, C alpha chain, allele C*04:01 (Homo sapiens, UniProt P10321)
Effect on: peptide-MHC binding
Form: peptide
Quantity: IC50
LPSCPTNFCIF: > 20 µM
KVADVDLAVPV: > 20 µM
RENHTEGLL: > 5 µM
FEYGGFPPA: > 5 µM
MMMSTAVAF: 3.23 µM
REMINHYQV: > 5 µM
ITLFPSYQL: > 5 µM
YIDISDVKV: 20 µM
RARRLRRAL: > 5 µM
KAIGTVLV: 20 µM
YMREVGAAL: > 5 µM
SYMSTFPLF: 0.089 µM
YARNFLIPF: > 5 µM
KITDFGIAK: > 5 µM
KVFPYALINK: > 5 µM
FRDRGQHVL: 20 µM
CSDETTLYY: 20 µM
RMILPMSRAFR: > 20 µM
YTMELCGAM: 20 µM
FQILHDRFF: > 20 µM
MVRVLTVIKEY: > 20 µM
SEFWLNYTA: > 5 µM
SAYYLDIGF: > 5 µM
TYLQSLASL: > 5 µM
FPHTELANL: > 20 µM

Single results of other studies
SLC6A3: Sodium-dependent dopamine transporter (SLC6A3, Homo sapiens, UniProt Q01959)
UniProt Q01959, sequence (whole entry, looked up): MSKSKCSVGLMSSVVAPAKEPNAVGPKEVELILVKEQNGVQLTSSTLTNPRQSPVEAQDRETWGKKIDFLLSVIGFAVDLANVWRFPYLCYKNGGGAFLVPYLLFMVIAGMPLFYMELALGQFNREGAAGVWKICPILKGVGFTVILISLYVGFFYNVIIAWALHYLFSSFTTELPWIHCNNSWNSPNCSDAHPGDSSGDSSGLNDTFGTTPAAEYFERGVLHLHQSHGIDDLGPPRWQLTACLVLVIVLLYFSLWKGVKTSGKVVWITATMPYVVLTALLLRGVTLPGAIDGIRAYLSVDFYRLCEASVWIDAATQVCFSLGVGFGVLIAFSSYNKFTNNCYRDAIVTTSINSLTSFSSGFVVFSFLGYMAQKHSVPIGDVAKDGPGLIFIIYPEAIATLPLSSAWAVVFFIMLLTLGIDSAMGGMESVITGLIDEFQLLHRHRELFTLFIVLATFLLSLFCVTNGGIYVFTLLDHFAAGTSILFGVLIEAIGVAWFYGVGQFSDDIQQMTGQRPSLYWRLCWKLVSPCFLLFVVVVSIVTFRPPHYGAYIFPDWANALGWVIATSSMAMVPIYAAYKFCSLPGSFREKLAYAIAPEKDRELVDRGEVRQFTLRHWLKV
C[C@H](c1ccccc1)n1cncc1C(=O)OCCC(=O)O  blood concentration (rat; MOC-etomidate infusion, 60 min after 30 min infusion): 820 ± 42 µM
CCCC(NC)C(=O)c1ccc2c(c1)OCO2 (racemic)  ED50 (locomotor activity; Swiss-Webster mice; intraperitoneal, no acclimation): 11.5 mg/kg
C#C[C@]1(O)CC[C@H]2[C@@H]3CCc4cc(O)ccc4[C@H]3CC[C@@]21C  AUC (human, plasma; dose not given, range of reported values): 0.001 to 3.5 µM·h
CCCCCCCCCCCCCC(=O)O[C@@H]1[C@@H](C)[C@@]2(O)[C@@H](C=C(CO)C[C@]3(O)C(=O)C(C)=C[C@@H]23)[C@@H]2C(C)(C)[C@]12OC(C)=O  IC50 (phorbol ester receptor; radioligand binding): 0.00079 µM
CN[C@@H](C)C(=O)N[C@H]1CN(S(=O)(=O)c2cccc(S(=O)(=O)N3CC[C@H]4CC[C@@H](C(=O)NC(c5ccccc5)c5ccccc5)N4C(=O)[C@@H](NC(=O)[C@H](C)NC)C3)c2)CC[C@H]2CC[C@@H](C(=O)NC(c3ccccc3)c3ccccc3)N2C1=O  maximum tolerated dose (human advanced solid tumours; monotherapy): 45 mg
CN1CC[C@]2(C)c3cc(OC(=O)Nc4ccccc4)ccc3N(C)[C@H]12  AUC share (human, plasma; oral, dose not given, Posiphen dosed): 52.6%
C[C@H](Cn1cnc2c(N)ncnc21)OCP(=O)(O)O  IC50 (OAT1; transport activity, inhibitor): 120 ± 19 µM
Fc1ccc(C(OCCN2CCN(CCCc3ccccc3)CC2)c2ccc(F)cc2)cc1  Hill coefficient (SLC6A3; binding): 0.9
O=C(O)C(F)(F)C(F)(F)C(F)(F)C(F)(F)C(F)(F)C(F)(F)C(F)(F)F  passive diffusion clearance (Caco-2 cells): 18.1 µL/min/mg protein
NCCc1ccc(Oc2ccc(O)cc2)c(I)c1  EC50 (rat TAAR1; agonist): 0.014 µM
C[C@@H]1C[C@H]2[C@@H]3CCC4=CC(=O)C=C[C@]4(C)[C@@]3(F)[C@@H](O)C[C@]2(C)[C@@]1(O)C(=O)CO  logD: 1.9
O=C(/C=C/c1cccc(S(=O)(=O)Nc2ccccc2)c1)NO  maximum tolerated dose (human patients; single agent, every 21 days): 1000 mg/m²
O=c1[nH]cc(F)c(=O)[nH]1  6-month overall survival rate (metastatic pancreatic cancer patients; dose not given): 31%
C[N+]1(C)CCC(OC(=O)C(c2ccccc2)c2ccccc2)CC1.[I-]  Hill coefficient (Muscarinic acetylcholine receptor M1 (CHRM1, Homo sapiens, UniProt P11229)): 1
C=C1C[C@@H]2[C@H](CC[C@]3(C)C(=O)CC[C@@H]23)[C@@]2(C)C=CC(=O)C=C12  AUC (human, plasma; dose not given, range of reported values): 0.099 to 3.61 µM·h
Nc1ccn([C@@H]2O[C@H](COP(=O)(O)OP(=O)(O)OP(O)(O)=S)[C@@H](O)[C@H]2O)c(=O)n1  Kd (Spo0J, Bacillus subtilis; binding): 10.3 ± 1.2 µM
CNC(C)C(=O)c1cccc(Cl)c1 (centres unmarked)  EC50 (serotonin transporter; serotonin release, releaser): 0.41 µM
O=S(=O)(O)C(F)(F)C(F)(F)C(F)(F)C(F)(F)C(F)(F)C(F)(F)C(F)(F)C(F)(F)C(F)(F)C(F)(F)F  top non-cytotoxic concentration (human liver spheroids): 100 µM
CC1OC1c1ccccc1C=CC(=O)O[C@H](C)[C@H](N)C(=O)O (some centres unmarked)  LC50 (Tetranychus cinnabarinus; acaricidal activity): 48.5 µg/mL (≈ 159 µM)
N.N.[Cl][Pt][Cl]  complete metabolic response (cervical cancer patients; dose not given, randomized phase II, without triapine, together with: radiation): 69%
Fc1ccc(C(OCCN2CCN(CCCc3ccccc3)CC2)c2ccc(F)cc2)cc1  Hill coefficient (SLC6A3): 0.9
O=S(=O)(O)C(F)(F)C(F)(F)C(F)(F)C(F)(F)C(F)(F)C(F)(F)C(F)(F)C(F)(F)F  top non-cytotoxic concentration (human liver spheroids): 20 µM
COc1ccc(C(=O)c2c(C)n(CCN3CCOCC3)c3cc(I)ccc23)cc1  Ki (cannabinoid receptor CB2; binding): 0.031 to 0.093 µM
OC[C@H]1OC(O)[C@H](O)[C@@H](O)[C@@H]1O (some centres unmarked)  K0.5 (human hexokinase 4 N204A; substrate): 976 ± 89 mM
C=CC1O[C@H]2C[C@H]3OC[C@@]3(OC(C)=O)[C@H]3[C@H](OC(=O)c4ccccc4)[C@]4(O)C[C@H](OC(=O)[C@H](O)[C@H](CC(C)C)NC(=O)OC(C)(C)C)C(C)=C([C@H](OC(C)=O)[C@H](O1)[C@]23C)C4(C)C (some centres unmarked)  cerebrospinal fluid level (human PSP or CBD patients; dose not given, drug still detectable in plasma): not detected

Repeated from above (single results of other studies):
O=S(=O)(O)C(F)(F)C(F)(F)C(F)(F)C(F)(F)C(F)(F)C(F)(F)C(F)(F)C(F)(F)F  top non-cytotoxic concentration (human liver spheroids): 20 µM
COc1ccc(C(=O)c2c(C)n(CCN3CCOCC3)c3cc(I)ccc23)cc1  Ki (cannabinoid receptor CB2; binding): 0.031 to 0.093 µM
OC[C@H]1OC(O)[C@H](O)[C@@H](O)[C@@H]1O (some centres unmarked)  K0.5 (human hexokinase 4 N204A; substrate): 976 ± 89 mM
